Measurements collected from several papers.
Numbered parts are unrelated; each lists some results of a single study. Positions count from the first letter of the parent shown.

Study 1
Target: ABI1, truncated, D143A, DHFR fusion (Arabidopsis thaliana)
Method: DHFR PCA, deep sequencing
Sample: yeast
Notes: methotrexate growth selection, single substitutions
With: (+)-ABA 710 µM
Baseline: wild-type fitted maximum
Reading: higher = stronger binding
Parent: PYL1, truncated, DHFR fusion (Arabidopsis thaliana); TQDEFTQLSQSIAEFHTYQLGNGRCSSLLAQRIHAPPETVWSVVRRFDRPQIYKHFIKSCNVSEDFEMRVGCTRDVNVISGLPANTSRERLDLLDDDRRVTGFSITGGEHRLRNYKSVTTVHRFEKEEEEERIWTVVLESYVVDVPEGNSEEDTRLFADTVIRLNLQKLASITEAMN
Variant | relative binding score [%]
N114S | 92.9
S87L | 13.2
G102F | -3.88
G23W | 87.7
R111V | 41.3
G108Y | 23.4
L91Q | 41.9
E129P | 110
K168E | 93.4
T101C | 107
I162Y | -9.97
R45P | -16.8
R24C | 95.4
A13E | 97.2

Study 2
Target: RING finger protein unkempt homolog, zinc fingers 1-6, GST-SBP tag (UNK, Homo sapiens, UniProt Q9C0B0, residues 30-357)
Chain of UniProt Q9C0B0 (30-357, looked up): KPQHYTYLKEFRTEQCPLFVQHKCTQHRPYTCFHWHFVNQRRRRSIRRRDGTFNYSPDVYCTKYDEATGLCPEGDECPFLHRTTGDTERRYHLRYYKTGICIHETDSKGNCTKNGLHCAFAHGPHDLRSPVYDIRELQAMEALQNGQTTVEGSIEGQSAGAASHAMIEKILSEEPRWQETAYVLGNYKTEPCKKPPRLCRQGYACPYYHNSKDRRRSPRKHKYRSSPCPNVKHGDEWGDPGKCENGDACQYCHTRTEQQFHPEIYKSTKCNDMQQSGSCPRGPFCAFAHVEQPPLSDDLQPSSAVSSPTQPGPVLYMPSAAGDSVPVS
Method: RNA Bind-n-Seq
Molecule type: RNA
Sample: in vitro
Tested at: not given
Notes: RNA with constant flanks, human-mouse chimeric sites, ends assumed
Baseline: input RNA pool
Reading: higher = stronger binding
Constant ends, left off below: GGGAGUUCUACAGUCCGACGAUC … CAACAGAGGAUUGAGCAUCA
Strand | bound/input enrichment [ratio]
CUGUGUGGCUUACUAAAAUGGCUUGUAAAGAAGUUUUUCCAAGCUGUAACCCAUGCUGUUAUUAUAGUUGCUGCAAAAUGUUCUUCCUGAUAUUGAUGUUUGUUUACAACUGAAGGUCUC | 0.108
GGACAUCUGUCAAAUUGUUAUGUUCCUGUGAAACAAGUGAACACUCUGAUACACUUCAUCUGCUUGUACAUCUGUAUUUGUAUAAUACAGAAAUCUAUUAAUCCAAGCAAUGUGUCACUU | 0.134
AUUGUUGAAGCGAAUCCACUUUUAGAAGCAUUUGGAAAUGCAAAGACUGUUCGCAACAAUAAUAGCAGUCGAUUUGGAAAAUUUGUAGAAAUACAUUUCAAUGAAAAGAGUUCGGUUGUU | 0.248
UUGUCGAAGACUCAACGAAAGACUCCAACGGUUAUUCAUAAACAUUAUCAAAUUCAUCGCAUUAGACAUUUUUAUAUGAGAAAAGUCAAAUUUACUCAACAGAAUUACCAUGACAGACUG | 7.18
UCGGAUGCUGUGCUGGGUCACUUUUCAUAUCCAGAUCCUUCACAGUGGACAGAUGAAGAAUUAGGUAUCCCUCCUGAUGACGAGGACUGACACUGUAGACUCAGCCUACGAGUAGGAGCA | 0.394
UCUUUAAAAAAAAAAUUACCUUUUCUGCAUAUUAUAGAUGGAGUAAAGAUCCACGUUCAAGCUCAAAGAGCAAAGGCUUUGCACGGAGCUCAAACAUCUGAUGAAGAAAGAUUUCUGAGA | 0.234
CCCUCCCCGGGCCACCCGCCCGCCCAAGCUCCCCGCCGAGAUCCAGGUUUCUUCUUAUUUCAUAGCAAAUAAGAAAAAUGUUCUACGCACAUUUUGUCCUCAGUAAACGAGGGCCUCUGG | 0.68
CUGAGGAUACCACUGAAGAGACCUUAAAAGAAUCAUUUGAGGGCUCUGUUCGUGCAAAGGAUAGUUACUGACCGGGAACUGGUUCUUCCAAAGGGUUUGGUUUUGUAGACUUUAAUAGUG | 0.848
CCUCCCCCGGGCCACCCACCCCUCCCGGCUCCCCGCCGAGAUCCAGGUUUCUUCUUAUUUCAUAGCCAAUAAGAAAAAUGUUCUACGCACAUUUUGUCCUCAGUAAACGAGGGCCUCUGG | 1.08
AGAUUCCCUCUCUUAAAACCUCCUCCGAAGUUGGAGUCUCUUACAGAUGCCUCAUCCCCUGUUAGCGUUUUAGUUUGGACCACCCAGCCUUGGACAAUUCCAGCCAACCAGGCAAUUUGC | 1.93
AAAGAACCUCUCUCUGAUGAAGAUGAGGAAGACAAUGAUGAUGUUGAACCCAUUUCUGAAUUUCGAUUUGUGCCUAGUGAUAAAUCAGCAUUGGAGGCGAUGUUCACAGCAAUGUGUGAG | 0.391

Study 3
Target: CCND3, cyclin fold, Cln2 fusion (human)
Method: yeast growth competition, sequencing
Sample: yeast
Notes: weak parent motif
Baseline: not given
Reading: higher = stronger binding
Parent: RBL1 docking peptide (human); GSAKRRLFGEDPP; partner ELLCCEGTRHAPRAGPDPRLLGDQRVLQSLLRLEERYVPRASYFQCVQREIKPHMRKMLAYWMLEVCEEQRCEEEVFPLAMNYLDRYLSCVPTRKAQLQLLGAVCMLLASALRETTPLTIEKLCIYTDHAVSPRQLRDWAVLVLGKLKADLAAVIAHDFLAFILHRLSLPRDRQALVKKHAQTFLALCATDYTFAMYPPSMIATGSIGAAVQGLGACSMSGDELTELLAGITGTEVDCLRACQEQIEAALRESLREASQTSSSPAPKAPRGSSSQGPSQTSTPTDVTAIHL
Variant | normalised enrichment score
GSAKRRLFGFDPP [E10F] | 0.181
GSAKRRLFGEDPY [P13Y] | 0.0807
GSAKRRLFGEQPP [D11Q] | 0.0935
GSAKRRLFGERPP [D11R] | 0.114
GSAKRRLFGESPP [D11S] | 0.115
GRAKRRLFGEDPP [S2R] | 0.127
GSAKRRLFGEDTP [P12T] | 0.205
GSAKARAFGEDPP [R5A L7A] | 0.0133
GSAKRRLFGEDMP [P12M] | 0.0993
GSAKRRLFGEWPP [D11W] | 0.137
GSAKRRLFGEDAP [P12A] | 0.151
GSEKRRLFGEDPP [A3E] | 0.159
GSAKMRLFGEDPP [R5M] | 0.182
GSAKRRLFGEDPF [P13F] | 0.0439
GSAKRRLFGNDPP [E10N] | 0.145
GSAKRRLFGEDPS [P13S] | 0.0119
GSARRRLFGEDPP [K4R] | 0.211
GSAKRQLFGEDPP [R6Q] | 0.0653
GSALRRLFGEDPP [K4L] | 0.0634
GSAKRRLFKEDPP [G9K] | 0.137
GSAKRRWFGEDPP [L7W] | 0.162
GGAKRRLFGEDPP [S2G] | 0.067
GSATRRLFGEDPP [K4T] | 0.156
GSAKRRLFGEDDP [P12D] | 0.0445
GSAKRRQFGEDPP [L7Q] | 0.144

Study 4
Target: Centromere-binding protein 1, full length, His-tagged (CBF1, Saccharomyces cerevisiae, UniProt P17106, residues 1-351)
Chain of UniProt P17106 (whole entry, looked up): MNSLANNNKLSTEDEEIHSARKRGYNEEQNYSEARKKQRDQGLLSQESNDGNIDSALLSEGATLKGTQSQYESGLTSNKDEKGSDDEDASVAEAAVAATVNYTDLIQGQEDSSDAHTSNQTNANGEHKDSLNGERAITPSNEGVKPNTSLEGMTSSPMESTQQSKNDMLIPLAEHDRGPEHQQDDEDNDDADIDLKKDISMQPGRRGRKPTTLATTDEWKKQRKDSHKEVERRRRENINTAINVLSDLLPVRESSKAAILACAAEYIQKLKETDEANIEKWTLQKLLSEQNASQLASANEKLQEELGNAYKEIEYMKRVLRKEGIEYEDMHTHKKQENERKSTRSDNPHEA
Method: competition protein-binding microarray
Molecule type: double-stranded DNA, one strand shown
Sample: in vitro
Tested at: 2 µM
Notes: whole 60-bp probe, lowest competitor level
With: Pho4 competitor, 0.05 µM
Reading: higher = stronger binding
Constant ends, left off below: … GTCTTGATTCGCTTGACGCTGCTG
Strand | fluorescence intensity [a.u.]
GACGGGCGCTGGGGACTCGTGCCGATCCGGGACTGG | 61.8
TGCGCAACAACTTGAGCAGTGGGTGTATGTCTAGAA | 73
CGGGGTTAAGTTTGTTCGGTGGGTGGCTTGCAGCAG | 66.4
CGGGGTTAAGTTTTTCACGTGCTTTGCTTGCAGCAG | 1160
CGGGGTTAAGTTTGGCATGTGGGTGGCTTGCAGCAG | 84.7
TGCGCAACAACTTTTCACGTGAAATTATGTCTAGAA | 1120
CGGGAAATATTTCAGCATGTGATGTGGCTGAAAATT | 905
CGGGGTTAAGTTTGTCACGGAACTTGCTTGCAGCAG | 67.8
AAAGCGGTAATTTGTCACGGAACTTCACATATCTAT | 88.9
CGTCCTAGTGATTGTCACGTTACTTCCATGAGGAAG | 751
GGCTATTATGCGATCATCGTGCAAAAATCGGTACTC | 101
GGTTAAACAGAAAAAGACGTGACGGTGTAACCGAGA | 108
GTCTTGTCTCATTGACAGGTGGGTGTCCCCACTTCA | 66.6

Study 5
Target: Histone acetyltransferase KAT6A, winged helix 1, GST fusion (KAT6A, Homo sapiens, UniProt Q92794, residues 1-85)
Method: protein binding microarray
Molecule type: double-stranded DNA, one strand shown
Sample: in vitro
Tested at: not given
Notes: 8-mer, flanks averaged, mean of 2 arrays, mostly near background
Baseline: not given
Reading: higher = stronger binding
Residues (chain): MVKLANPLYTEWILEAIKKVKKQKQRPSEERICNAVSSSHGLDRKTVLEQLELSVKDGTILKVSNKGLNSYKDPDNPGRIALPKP
Strand | E-score
ATCACCCC | -0.0964
GTCGTCTA | 0.118
ACCCTCCT | -0.115
ACTGATAC | -0.0274
GCCCGAGA | 0.0772
ATAAATTC | -0.198
AGTCTTAA | -0.105
AAATGTCC | -0.1
AGGGCCTC | -0.132
AAGCATAA | -0.134
CCGGACAA | 0.133
GCCGACCC | 0.351
CTAGAAAG | 0.0728
GACAGGTC | -0.0715
ACAAAGGA | -0.243
ACTTGCCA | -0.172
GGACTCAC | 0.0316

Study 6
Target: Sal-like protein 4, full length isoform A (SALL4, Homo sapiens, UniProt Q9UJQ4, residues 1-1053)
Chain of UniProt Q9UJQ4 (whole entry, looked up): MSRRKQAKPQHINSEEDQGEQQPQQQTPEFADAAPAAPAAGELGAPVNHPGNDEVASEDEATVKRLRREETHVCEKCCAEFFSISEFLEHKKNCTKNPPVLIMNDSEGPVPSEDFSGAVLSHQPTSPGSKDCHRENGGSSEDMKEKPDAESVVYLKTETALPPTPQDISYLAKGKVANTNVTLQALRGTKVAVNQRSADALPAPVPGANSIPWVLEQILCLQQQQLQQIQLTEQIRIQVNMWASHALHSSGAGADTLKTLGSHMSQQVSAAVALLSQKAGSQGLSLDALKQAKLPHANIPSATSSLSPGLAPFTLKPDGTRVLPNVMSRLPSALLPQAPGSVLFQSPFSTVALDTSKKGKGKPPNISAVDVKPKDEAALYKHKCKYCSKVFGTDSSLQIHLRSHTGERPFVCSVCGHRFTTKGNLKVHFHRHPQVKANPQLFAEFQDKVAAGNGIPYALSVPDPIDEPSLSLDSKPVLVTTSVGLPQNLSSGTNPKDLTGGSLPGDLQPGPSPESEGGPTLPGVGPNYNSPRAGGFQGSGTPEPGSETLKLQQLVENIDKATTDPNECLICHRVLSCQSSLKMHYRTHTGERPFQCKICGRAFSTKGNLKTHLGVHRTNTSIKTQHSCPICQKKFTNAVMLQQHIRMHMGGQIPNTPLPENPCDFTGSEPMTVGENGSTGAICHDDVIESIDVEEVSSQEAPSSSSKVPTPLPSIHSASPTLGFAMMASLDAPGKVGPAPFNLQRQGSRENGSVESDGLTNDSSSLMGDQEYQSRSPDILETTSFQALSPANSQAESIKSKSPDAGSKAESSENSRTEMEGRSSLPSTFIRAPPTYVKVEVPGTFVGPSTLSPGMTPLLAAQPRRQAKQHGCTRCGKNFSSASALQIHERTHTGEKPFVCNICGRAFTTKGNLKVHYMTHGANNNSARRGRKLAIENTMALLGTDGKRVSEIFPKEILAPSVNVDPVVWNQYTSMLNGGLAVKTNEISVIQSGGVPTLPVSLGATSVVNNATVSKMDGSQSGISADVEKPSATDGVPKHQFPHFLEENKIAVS
Method: universal PBM
Molecule type: double-stranded DNA, one strand shown
Sample: in vitro
Tested at: 600 nM
Notes: 8-mer, flanks averaged, mean of replicates
Reading: higher = stronger binding
Strand | E-score
ACTGTTAC | 0.0844
CCCACCAG | -0.268
CTCGCATC | -0.177
AGAATGTG | 0.00417
ATCACTTG | 0.0831
AACGCCGG | -0.304
AATAGTAT | 0.315
CCAATCAA | -0.014
AAGGATCC | -0.289
AAGATCTG | -0.0948
ACTCTTTG | 0.101
GATACGCC | -0.191
ACCCGCGT | -0.294
ACGCGGAG | -0.24
CTTGGTAA | 0.12
CATACACC | -0.0786
CAATATCG | 0.209
TGTTAACA | 0.267
AATTTCGC | 0.0987
GCAGTACC | -0.0772
ATAAGGTG | 0.117
CACACAGA | -0.0226
ACTCCCCC | -0.216
AGTGCCCC | -0.262
CATGCCTC | -0.0799

Study 7
Target: CREB3L1, bZIP domain (human)
Method: DHFR protein complementation
Sample: yeast
Notes: single substitutions, most at no-binding floor
Baseline: wild-type JUN-FOS pair
Reading: higher = stronger binding
Parent: JUN, bZIP domain (human); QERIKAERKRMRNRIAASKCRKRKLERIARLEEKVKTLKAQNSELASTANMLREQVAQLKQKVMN; partner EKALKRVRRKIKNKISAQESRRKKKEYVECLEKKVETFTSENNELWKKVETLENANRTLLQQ
Variant | binding fitness
M51G | -1.34 natural log
Q55S | -1.39 natural log
T37H | -1.37 natural log
M51H | -1.45 natural log
V56N | -1.33 natural log
E44P | -1.51 natural log
S47A | -1.29 natural log
M51T | -1.42 natural log
K36D | -1.48 natural log
V35R | -1.38 natural log
V56S | -1.49 natural log
E33Q | -1.51 natural log
A57P | -1.47 natural log
L31Y | -1.48 natural log
E32G | -1.49 natural log
E32P | -1.5 natural log
A46M | -1.49 natural log
E54D | -1.39 natural log

Further values, each from its own experiment
Substance | target | test | test system | conditions | scale | endpoint | result
PhoQ, residues 284 288 289 292 302 303 SVTLVV | PhoP, residues 12 14 15 18 19 NMSSL (Escherichia coli, UniProt P23836) | Sort-seq, item: YFP reporter | E. coli | PhoQ-PhoP variant library, with: 10 µM Mg2+ | baseline: high Mg2+ state, higher = stronger signaling | fold induction | 13.2

A few entries again (study 7):
Variant | binding fitness
M51G | -1.34 natural log
Q55S | -1.39 natural log
T37H | -1.37 natural log
M51H | -1.45 natural log
V56N | -1.33 natural log
E44P | -1.51 natural log
S47A | -1.29 natural log
M51T | -1.42 natural log
K36D | -1.48 natural log
V35R | -1.38 natural log
V56S | -1.49 natural log
E33Q | -1.51 natural log
A57P | -1.47 natural log
L31Y | -1.48 natural log
E32G | -1.49 natural log
E32P | -1.5 natural log
A46M | -1.49 natural log
